# Published values from different studies.
# Protocols differ between the studies behind these lines. “And” joins repeats or separate records; there may be more than shown. Numbers after ± are the reported error.
# Sequence of UniProt P08183 (whole entry, looked up): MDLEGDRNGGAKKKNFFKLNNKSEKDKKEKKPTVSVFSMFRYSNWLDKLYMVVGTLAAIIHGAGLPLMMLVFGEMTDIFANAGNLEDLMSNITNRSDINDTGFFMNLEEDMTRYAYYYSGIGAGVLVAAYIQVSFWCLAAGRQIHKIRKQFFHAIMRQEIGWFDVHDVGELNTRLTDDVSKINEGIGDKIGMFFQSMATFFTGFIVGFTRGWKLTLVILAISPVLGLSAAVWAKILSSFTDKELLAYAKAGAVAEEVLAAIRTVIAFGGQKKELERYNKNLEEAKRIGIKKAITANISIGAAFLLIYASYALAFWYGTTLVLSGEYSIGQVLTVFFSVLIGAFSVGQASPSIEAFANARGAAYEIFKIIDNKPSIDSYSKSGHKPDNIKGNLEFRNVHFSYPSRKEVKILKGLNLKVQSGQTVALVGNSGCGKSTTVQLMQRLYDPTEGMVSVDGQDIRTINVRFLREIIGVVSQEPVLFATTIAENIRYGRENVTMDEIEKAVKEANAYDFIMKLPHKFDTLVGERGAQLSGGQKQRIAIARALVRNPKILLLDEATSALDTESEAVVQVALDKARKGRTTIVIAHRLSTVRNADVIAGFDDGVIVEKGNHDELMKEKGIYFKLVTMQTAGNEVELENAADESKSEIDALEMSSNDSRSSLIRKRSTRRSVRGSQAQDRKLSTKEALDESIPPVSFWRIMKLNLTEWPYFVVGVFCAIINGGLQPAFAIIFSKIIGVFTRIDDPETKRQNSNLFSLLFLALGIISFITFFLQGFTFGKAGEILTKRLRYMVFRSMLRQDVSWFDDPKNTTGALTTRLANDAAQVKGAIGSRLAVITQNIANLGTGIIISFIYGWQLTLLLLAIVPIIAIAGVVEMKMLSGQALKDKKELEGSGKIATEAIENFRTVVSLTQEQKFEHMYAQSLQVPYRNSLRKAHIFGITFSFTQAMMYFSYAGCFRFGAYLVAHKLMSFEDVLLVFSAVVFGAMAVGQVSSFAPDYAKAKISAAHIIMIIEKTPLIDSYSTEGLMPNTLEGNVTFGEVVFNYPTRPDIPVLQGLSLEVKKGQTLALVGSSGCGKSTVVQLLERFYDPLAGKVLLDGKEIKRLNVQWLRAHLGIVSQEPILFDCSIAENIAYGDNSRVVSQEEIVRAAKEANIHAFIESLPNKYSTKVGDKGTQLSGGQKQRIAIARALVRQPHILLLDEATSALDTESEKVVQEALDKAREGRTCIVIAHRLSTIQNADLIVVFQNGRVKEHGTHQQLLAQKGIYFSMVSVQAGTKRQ
Structure (SMILES),target or system,test,test system,setting,how to read,measurement,value
CC1(C)C(/C=C(\Cl)C(F)(F)F)C1C(=O)OC(C#N)c1cccc(Oc2ccccc2)c1 (centres unmarked),human microsomal CES2,IVIVE from expressed enzymes,"human, liver, in vivo scaled",age-specific,,enzyme contribution to CLint,0.02%
Cc1cc(C(=O)NC(C)(C)COc2cccc3c2C(N)=NS(=O)(=O)N3)cc(C)n1,Salmonella typhimurium,"Ames test, confirmatory",TA100,"100 µg/plate, added: rat liver S9",baseline: solvent control,revertant ratio,1.1
C#Cc1ccc2c(c1)C(c1ccccn1)=NCc1c(-c3cnco3)ncn1-2,,,DMSO,"24 h, 25 °C, thermodynamic equilibrium",,solubility,4290 µg/mL
OCc1ncc2n1-c1ccc(Cl)cc1C(c1ccccc1F)=NC2,CYP3A4 (human),,"human, plasma","oral, 2 mg midazolam, Day 1, added: single dose encorafenib and binimetinib",baseline: Day -7,geometric LS mean ratio of AUClast,1.28
COc1cc2c(Oc3ccc4[nH]c(C)cc4c3F)ccnc2cc1OCC1(N)CC1,,,paediatric refractory sarcoma patients,12 mg,,blurred vision incidence,9.1%
Cn1cc(C(F)(F)F)nc1-c1ccc(OCC(O)CNCCOc2ccc(O)c(C(N)=O)c2)cc1 (centres unmarked),Plasmodium falciparum,,GB4,,,IC50,12.6 µM
CC(C)CC(=O)OC[C@H]1O[C@@](C#N)(c2ccc3c(N)ncnn23)[C@H](O)[C@@H]1O,"ABCB1 (Homo sapiens, UniProt P08183)",apical to basolateral transport,Caco-2,"9 µM, 2 h, added: verapamil 100 µM",,recovery,55.8%
Oc1ccc(C(c2ccc(O)cc2)(C(F)(F)F)C(F)(F)F)cc1,HepG2 spheroids,annexin V-FITC/PI flow cytometry,,"0.10 µM, 96 h",,late apoptotic cells,34.2 ± 8.11%
Nc1ncnc2c([C@@H]3N[C@H](CO)[C@@H](O)[C@H]3O)c[nH]c12,HeLa,,,6.3 µM,,cell number,5870 and 5980
COc1cccc(-c2n[nH]c(SCc3ccccn3)n2)c1OC,Salmonella typhimurium,"Ames test, preincubation",TA100,"0.50 mg/plate, with rat liver S9",,revertant colonies per plate,141
CCCC[C@H](NC(C)=O)C(=O)N[C@@H](CO)C(=O)N[C@H](C(=O)N1CCC[C@H]1C(=O)N[C@@H](C)C(=O)N[C@@H](CCCNC(=N)N)C(=O)N[C@@H](CCCNC(=N)N)C(=O)N[C@@H](CCCNC(=N)N)C(=O)N[C@@H](CC(C)C)C(=O)N[C@@H](CCCC)C(=O)N[C@@H](CCCNC(=N)N)C(=O)N[C@@H](CC(=O)O)C(=O)N[C@@H](Cc1ccccc1)C(=O)N[C@@H](CCCCN)C(=O)N[C@@H](CCCNC(=N)N)C(=O)N[C@@H](CC(C)C)C(=O)N[C@@H](CCC(N)=O)C(N)=O)[C@@H](C)O,proteinase K,LC-MS,,"25 µM, 61.4 min, pH 7.4",,remaining peptide,6.1%
CC(=O)N1CCC(C(=O)N2CCN3C(=O)c4cc(-c5ccccc5)ccc4NC(=O)C3C2)CC1 (centres unmarked),Escherichia coli,,WP2 uvrA,"158 µg/plate, without S9",,revertants per plate,26
O=c1ccc2ccccc2o1,HepG2,cell membrane permeability,,"concentration not given, 1 h, necrosis and apoptosis panel",,chance response,0.05%
[Cl-].[Cl-].[Pt+2].[Ru+2].c1ccc(-c2nc3cc4ccccc4cc3nc2-c2ccccn2)nc1.c1cnc2c(c1)ccc1cccnc12.c1cnc2c(c1)ccc1cccnc12,Danio rerio,,embryos,"75 µM, 24 h",,survival rate,80 ± 4.7%
CO[C@H]1C[C@@H]2CC[C@@H](C)[C@@](O)(O2)C(=O)C(=O)N2CCCC[C@H]2C(=O)O[C@H]([C@H](C)C[C@@H]2CC[C@@H](OC(=O)NCCOCCOCCOCCOCCOCCOCCOCCOCCC(=O)N3CCc4cc(Cn5nc(-c6ccc7oc(N)nc7c6)c6c(N)ncnc65)ccc4C3)[C@H](OC)C2)C[C@@H](O)[C@H](C)/C=C(\C)[C@@H](O)[C@@H](OC)C(=O)[C@H](C)C[C@H](C)/C=C/C=C/C=C/1C,,,patients with advanced solid tumours,"intravenous, 1.6 mg/3 mg weekly, grade ≥3",,incidence of Constipation TEAE,0%
CCCCN1[C@@H]2CC[C@H]1C[C@@H](OC(c1ccc(F)cc1)c1ccc(F)cc1)C2,Plasmodium falciparum,,W2,,,IC50,0.398 µM
CCN(CC)C(=O)[C@@H]1C=C2c3cccc4[nH]cc(c34)C[C@H]2N(C)C1,,measured: increased appetite,healthy volunteers,"dose not given, 12 to 24 h","baseline: placebo, direction not given",List of Complaints score,-1
